Assay results of several laboratories.
Protocols differ between the studies behind these lines.

CN[C@H](CC(C)C)C(=O)N[C@H]1C(=O)N[C@@H](CC(N)=O)C(=O)N[C@H]2C(=O)N[C@H]3C(=O)N[C@H](C(=O)N[C@H](C(=O)O)c4cc(O)cc(O)c4-c4cc3ccc4O)[C@H](O)c3ccc(c(Cl)c3)Oc3cc2cc(c3O[C@@H]2O[C@H](CO)[C@@H](O)[C@H](O)[C@H]2O[C@H]2C[C@](C)(N)[C@H](O)[C@H](C)O2)Oc2ccc(cc2Cl)[C@H]1O
MIC (Streptococcus pyogenes; ATCC 13813; 1 strain): 0.5 µg/mL

C#CCON=C1C=CC(=C(C#N)c2ccccc2)C=C1
MIC (Clavispora lusitaniae; broth dilution; ATCC 34449; 48 h, 37 °C): 64 µg/mL

O=c1ccn([C@@H]2O[C@H](COP(=O)(O)O)[C@@H](O)[C@H]2O)c(=O)[nH]1
log2 fold change (binding, MIDAS equilibrium dialysis LC-MS; A2AR-BRIL thermostabilized; concentration not given; relative to: no-protein control): -0.0722

C[C@@H](c1ncncc1F)[C@](O)(Cn1cncn1)c1ccc(F)cc1F
MIC (Blastomyces dermatitidis; BD-3): ≤ 0.03 µg/mL

Cc1c(CN(C)C(=O)/C=C/c2cnc3c(c2)CCC(=O)N3)oc2ccccc12
MIC (Escherichia coli; broth microdilution; AR-0541): > 32 µg/mL

CC1CCC(C(C)C)C(OC2=C(Cl)C(=O)c3ccccc3C2=O)C1 (stereo not shown)
MIC (Serratia marcescens; broth microdilution; MTCC 4301): 10 µg/mL

N=C(N)c1ccc(OCc2cc(COc3ccc(C(=N)N)cc3)cc(-c3ccccc3)c2)cc1
MIC (Escherichia coli; mcr-3 polymyxin-resistant; compound alone): 200 µg/mL

CCCCCCCCCC(=O)N[C@@H](Cc1c[nH]c2ccccc12)C(=O)N[C@H](CC(N)=O)C(=O)N[C@@H](CC(=O)O)C(=O)N[C@@H]1C(=O)NCC(=O)N[C@@H](CCCN)C(=O)N[C@@H](CC(=O)O)C(=O)N[C@H](C)C(=O)N[C@@H](CC(=O)O)C(=O)NCC(=O)N[C@H](CO)C(=O)N[C@@H]([C@H](C)CC(=O)O)C(=O)N[C@@H](CC(=O)c2ccccc2N)C(=O)O[C@@H]1C
MIC (Staphylococcus aureus; SH1000; with: N-acetylsphingosine, molar ratio 2): 1 µg/mL

O=C1OC(C(O)CO)C(=O)C1=O (stereo not shown)
log2 fold change (binding, MIDAS equilibrium dialysis LC-MS; A2AR-BRIL thermostabilized; concentration not given; relative to: no-protein control): -0.192

CCCCCCC#Cc1cncc(-c2nnc(SCc3ccc([N+](=O)[O-])cc3)n2C)c1
MIC (Mycolicibacterium smegmatis; no activity below value): ≥ 100 µM

C#CCOC(=O)ON=C1C=CC(=C(C#N)c2ccccc2)C=C1
MIC (Clavispora lusitaniae; broth dilution; ATCC 34449; 48 h, 37 °C): 64 µg/mL

Cn1cc(-c2ccc(-c3cncc(Cl)c3N3CCC4(CCNC4=O)CC3)cc2)cn1
log2 fold change (COLO 205; gene expression, microarray, measured: HMOX1 mRNA; concentration not given, 6 h; relative to: untreated cells): 2.23

CC1(C)S[C@@H]2[C@H](NC(=O)[C@H](N)c3ccccc3)C(=O)N2[C@H]1C(=O)O
MIC (Pseudomonas aeruginosa; clinical isolate RKI-No_578/15): > 16 µg/mL

CC(C)C[C@@H]1NC(=O)[C@@H](Cc2ccccc2)NC(=O)[C@H](CCN)NC(=O)[C@@H](NC(=O)[C@H](CCN)NC(=O)[C@@H](N)[C@@H](C)O)CCNC(=O)[C@H]([C@@H](C)O)NC(=O)[C@H](CCN)NC(=O)[C@H](CCN)NC1=O
MIC (Escherichia coli; vancomycin MIC with synergist, checkerboard; BW25113; concentration not given, lowest-FICI combination, with: vancomycin): 50 µg/mL

CC(C)(C)OCC1NC(=O)C(C(=O)NC(C(=O)NC2C(=O)N3C2SC(C)(C)C3C(=O)O)c2ccccc2)=C1O (stereo not shown)
MIC (Escherichia coli; broth microdilution; BW25113 wild type; 18 h): 25 µg/mL

N=C(N)c1ccc(OCc2ccccc2COc2ccc(C(=N)N)cc2)cc1
MIC (Escherichia coli; BW25113; compound alone, novobiocin checkerboard): > 200 µg/mL

CC1(C)SC2C(NC(=O)C(NC(=O)C3=C(O)C(Cc4ccc(O)cc4)NC3=O)c3ccccc3)C(=O)N2C1C(=O)O (stereo not shown)
MIC (Escherichia coli; broth microdilution; ATCC 25922 wild type; no clavulanic acid): 12.5 µg/mL

C[C@H]1COc2c(N3CCN(C)CC3)c(F)cc3c(=O)c(C(=O)O)cn1c23
MIC (Serratia marcescens; agar dilution; ATCC 21074 susceptible): 0.12 µg/mL

N=C(N)c1cccc(OCc2ccc(COc3cccc(C(=N)N)c3)cc2)c1
MIC (Escherichia coli; 552100; compound alone): > 200 µg/mL

Repeated from above:
C#CCOC(=O)ON=C1C=CC(=C(C#N)c2ccccc2)C=C1
MIC (Clavispora lusitaniae; broth dilution; ATCC 34449; 48 h, 37 °C): 64 µg/mL

C[C@@H](c1ncncc1F)[C@](O)(Cn1cncn1)c1ccc(F)cc1F
MIC (Blastomyces dermatitidis; BD-3): ≤ 0.03 µg/mL

CC1(C)S[C@@H]2[C@H](NC(=O)[C@H](N)c3ccccc3)C(=O)N2[C@H]1C(=O)O
MIC (Pseudomonas aeruginosa; clinical isolate RKI-No_578/15): > 16 µg/mL
